Assay results from different studies.
A part holds a random share of what one study measured.
UniProt P10721, sequence (whole entry, unmodified, looked up): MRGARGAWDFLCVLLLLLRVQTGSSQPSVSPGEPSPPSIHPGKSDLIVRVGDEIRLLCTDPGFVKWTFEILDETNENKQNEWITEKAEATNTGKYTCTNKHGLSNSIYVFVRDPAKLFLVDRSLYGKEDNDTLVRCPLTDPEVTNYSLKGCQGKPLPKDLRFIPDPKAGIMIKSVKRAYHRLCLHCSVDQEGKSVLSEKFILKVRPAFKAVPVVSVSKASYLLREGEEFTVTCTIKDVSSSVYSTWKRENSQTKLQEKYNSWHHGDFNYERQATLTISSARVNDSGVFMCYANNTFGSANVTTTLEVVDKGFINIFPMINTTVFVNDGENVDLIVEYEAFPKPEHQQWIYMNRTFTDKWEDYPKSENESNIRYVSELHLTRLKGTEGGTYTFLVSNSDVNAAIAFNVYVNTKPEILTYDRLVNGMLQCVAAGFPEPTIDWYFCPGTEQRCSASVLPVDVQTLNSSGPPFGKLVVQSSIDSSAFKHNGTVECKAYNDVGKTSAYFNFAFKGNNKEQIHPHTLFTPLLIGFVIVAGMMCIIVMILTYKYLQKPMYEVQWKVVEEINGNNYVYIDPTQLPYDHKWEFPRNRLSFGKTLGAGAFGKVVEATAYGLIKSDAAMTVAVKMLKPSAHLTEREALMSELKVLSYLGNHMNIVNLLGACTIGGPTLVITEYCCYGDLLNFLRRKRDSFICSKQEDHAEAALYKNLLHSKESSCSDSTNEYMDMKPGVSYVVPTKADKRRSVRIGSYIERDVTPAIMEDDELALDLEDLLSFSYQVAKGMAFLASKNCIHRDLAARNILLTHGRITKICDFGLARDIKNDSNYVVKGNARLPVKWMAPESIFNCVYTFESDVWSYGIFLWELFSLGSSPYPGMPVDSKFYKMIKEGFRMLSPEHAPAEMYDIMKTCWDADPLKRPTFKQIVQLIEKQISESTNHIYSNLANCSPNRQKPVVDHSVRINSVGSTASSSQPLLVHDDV
UniProt O60331, sequence (whole entry, looked up): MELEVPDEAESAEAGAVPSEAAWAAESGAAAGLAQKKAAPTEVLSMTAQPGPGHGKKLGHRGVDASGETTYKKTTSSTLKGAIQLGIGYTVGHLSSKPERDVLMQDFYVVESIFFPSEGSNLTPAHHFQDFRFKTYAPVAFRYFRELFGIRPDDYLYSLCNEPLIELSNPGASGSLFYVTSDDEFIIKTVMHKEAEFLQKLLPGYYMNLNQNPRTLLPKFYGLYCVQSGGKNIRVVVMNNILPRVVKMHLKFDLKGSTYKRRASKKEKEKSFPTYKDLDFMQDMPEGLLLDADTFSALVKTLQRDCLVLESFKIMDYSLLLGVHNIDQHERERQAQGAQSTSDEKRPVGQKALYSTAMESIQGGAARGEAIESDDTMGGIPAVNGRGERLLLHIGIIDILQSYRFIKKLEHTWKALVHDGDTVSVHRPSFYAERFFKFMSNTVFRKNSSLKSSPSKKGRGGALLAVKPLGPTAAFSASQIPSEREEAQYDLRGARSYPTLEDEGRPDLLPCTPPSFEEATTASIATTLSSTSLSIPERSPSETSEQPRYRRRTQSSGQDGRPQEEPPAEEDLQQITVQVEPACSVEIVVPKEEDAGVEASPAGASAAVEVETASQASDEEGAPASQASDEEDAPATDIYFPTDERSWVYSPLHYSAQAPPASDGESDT
UniProt Q6ZWH5, sequence (whole entry, looked up): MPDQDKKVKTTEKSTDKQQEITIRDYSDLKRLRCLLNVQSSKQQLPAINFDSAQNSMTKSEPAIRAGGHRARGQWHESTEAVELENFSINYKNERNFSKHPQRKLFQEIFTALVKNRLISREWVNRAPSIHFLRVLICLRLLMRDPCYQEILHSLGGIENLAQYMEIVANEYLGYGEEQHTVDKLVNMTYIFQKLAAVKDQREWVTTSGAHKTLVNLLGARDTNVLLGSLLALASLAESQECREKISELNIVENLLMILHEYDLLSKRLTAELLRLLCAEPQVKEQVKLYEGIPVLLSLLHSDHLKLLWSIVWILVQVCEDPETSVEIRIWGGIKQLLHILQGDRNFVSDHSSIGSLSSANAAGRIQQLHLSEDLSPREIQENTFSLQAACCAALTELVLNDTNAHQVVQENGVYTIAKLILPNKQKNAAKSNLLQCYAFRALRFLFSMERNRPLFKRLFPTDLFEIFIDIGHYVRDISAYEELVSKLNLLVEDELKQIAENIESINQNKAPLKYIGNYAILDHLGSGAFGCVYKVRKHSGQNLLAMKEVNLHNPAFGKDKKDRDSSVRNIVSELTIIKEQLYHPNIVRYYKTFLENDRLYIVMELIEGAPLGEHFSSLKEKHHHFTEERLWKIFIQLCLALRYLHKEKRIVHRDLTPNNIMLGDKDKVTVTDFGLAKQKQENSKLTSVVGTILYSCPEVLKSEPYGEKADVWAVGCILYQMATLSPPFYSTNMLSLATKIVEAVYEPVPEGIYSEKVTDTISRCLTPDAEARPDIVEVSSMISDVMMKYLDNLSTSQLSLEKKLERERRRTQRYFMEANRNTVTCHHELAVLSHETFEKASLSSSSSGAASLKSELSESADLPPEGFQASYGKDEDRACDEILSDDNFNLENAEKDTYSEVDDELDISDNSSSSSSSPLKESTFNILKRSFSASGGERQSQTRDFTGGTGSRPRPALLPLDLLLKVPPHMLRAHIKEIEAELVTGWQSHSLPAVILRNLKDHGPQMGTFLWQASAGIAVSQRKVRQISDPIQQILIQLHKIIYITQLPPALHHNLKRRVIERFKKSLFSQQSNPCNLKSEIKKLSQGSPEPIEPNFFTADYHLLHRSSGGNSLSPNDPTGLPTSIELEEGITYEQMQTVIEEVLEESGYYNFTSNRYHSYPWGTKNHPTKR
UniProt Q6PHR2, sequence (whole entry, looked up): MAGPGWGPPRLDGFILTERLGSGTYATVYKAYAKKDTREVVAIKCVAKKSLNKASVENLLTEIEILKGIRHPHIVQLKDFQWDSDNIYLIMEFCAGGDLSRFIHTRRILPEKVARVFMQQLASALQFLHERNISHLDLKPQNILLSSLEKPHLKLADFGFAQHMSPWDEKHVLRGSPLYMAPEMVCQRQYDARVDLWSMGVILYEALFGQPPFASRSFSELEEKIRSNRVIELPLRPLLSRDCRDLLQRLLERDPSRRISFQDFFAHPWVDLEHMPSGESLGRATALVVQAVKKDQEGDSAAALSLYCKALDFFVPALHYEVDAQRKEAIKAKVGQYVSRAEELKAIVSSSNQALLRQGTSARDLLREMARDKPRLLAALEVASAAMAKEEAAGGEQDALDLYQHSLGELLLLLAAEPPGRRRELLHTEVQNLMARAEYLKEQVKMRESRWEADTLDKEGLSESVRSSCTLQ
UniProt Q59H18, sequence (whole entry, looked up): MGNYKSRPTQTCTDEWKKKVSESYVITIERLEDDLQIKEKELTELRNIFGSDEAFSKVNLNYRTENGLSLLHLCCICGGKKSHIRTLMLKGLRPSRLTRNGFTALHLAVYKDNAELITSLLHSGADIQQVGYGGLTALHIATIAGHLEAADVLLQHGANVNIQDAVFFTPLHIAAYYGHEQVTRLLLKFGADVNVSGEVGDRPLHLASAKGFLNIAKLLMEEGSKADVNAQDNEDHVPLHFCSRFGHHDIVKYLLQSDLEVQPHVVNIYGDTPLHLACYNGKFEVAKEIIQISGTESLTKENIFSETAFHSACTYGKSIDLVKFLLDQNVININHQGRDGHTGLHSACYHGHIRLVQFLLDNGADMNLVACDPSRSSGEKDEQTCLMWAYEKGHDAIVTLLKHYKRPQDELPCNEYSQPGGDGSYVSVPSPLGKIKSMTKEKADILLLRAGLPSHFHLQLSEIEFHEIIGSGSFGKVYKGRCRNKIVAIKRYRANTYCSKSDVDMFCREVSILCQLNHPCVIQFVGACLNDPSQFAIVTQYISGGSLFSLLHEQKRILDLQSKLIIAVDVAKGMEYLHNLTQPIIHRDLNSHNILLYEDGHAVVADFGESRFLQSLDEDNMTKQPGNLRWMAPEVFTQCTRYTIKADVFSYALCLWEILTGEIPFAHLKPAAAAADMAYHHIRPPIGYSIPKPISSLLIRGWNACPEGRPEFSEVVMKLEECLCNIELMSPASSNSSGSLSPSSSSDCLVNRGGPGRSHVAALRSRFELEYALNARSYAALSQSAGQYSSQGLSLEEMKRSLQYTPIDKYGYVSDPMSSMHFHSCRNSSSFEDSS

Block 1 — technique: competition with immobilised ligand; tested at: 1 µM; measurement: remaining binding
Structure (SMILES): N#CC1(c2ccccn2)CCN(Cc2cc(C(=O)O)c(=O)n3ccccc23)CC1
Cyclin-G-associated kinase (GAK, Homo sapiens, UniProt O14976); cell-free assay: 100%
Tyrosine-protein kinase ABL1, non-phosphorylated (ABL1, Homo sapiens, UniProt P00519, T315I); cell-free assay: 80%
Serine/threonine-protein kinase Sgk3 (SGK3, Homo sapiens, UniProt Q96BR1); cell-free assay: 74%
Serine/threonine-protein kinase Nek11 (NEK11, Homo sapiens, UniProt Q8NG66); cell-free assay: 89%
Phosphatidylinositol 4-kinase beta (PI4KB, Homo sapiens, UniProt Q9UBF8); cell-free assay: 74%
Serine/threonine-protein kinase TNNI3K (TNNI3K, Homo sapiens, UniProt Q59H18); cell-free assay: 100%
Serine/threonine-protein kinase LATS2 (LATS2, Homo sapiens, UniProt Q9NRM7); cell-free assay: 95%
Serine/threonine-protein kinase ULK3 (ULK3, Homo sapiens, UniProt Q6PHR2); cell-free assay: 89%
Myotonin-protein kinase (DMPK, Homo sapiens, UniProt Q09013); cell-free assay: 97%
Atypical kinase COQ8B, mitochondrial (COQ8B, Homo sapiens, UniProt Q96D53); cell-free assay: 90%
Phosphatidylinositol 4-phosphate 5-kinase type-1 gamma (PIP5K1C, Homo sapiens, UniProt O60331); cell-free assay: 89%
Tyrosine-protein kinase JAK3, JH1 (JAK3, Homo sapiens, UniProt P52333); cell-free assay: 95%
Bone morphogenetic protein receptor type-2 (BMPR2, Homo sapiens, UniProt Q13873); cell-free assay: 89%
Serine/threonine-protein kinase Chk1 (CHEK1, Homo sapiens, UniProt O14757); cell-free assay: 100%
Tyrosine-protein kinase Yes (YES1, Homo sapiens, UniProt P07947); cell-free assay: 94%
Mitogen-activated protein kinase kinase kinase 20 (MAP3K20, Homo sapiens, UniProt Q9NYL2); cell-free assay: 100%
Dual specificity protein kinase CLK4 (CLK4, Homo sapiens, UniProt Q9HAZ1); cell-free assay: 100%
Mitogen-activated protein kinase kinase kinase 3 (MAP3K3, Homo sapiens, UniProt Q99759); cell-free assay: 77%
Serine/threonine-protein kinase DCLK3 (DCLK3, Homo sapiens, UniProt Q9C098); cell-free assay: 89%
Activin receptor type-1-like (ACVRL1, Homo sapiens, UniProt P37023); binding: 95%
Mast/stem cell growth factor receptor Kit (KIT, Homo sapiens, UniProt P10721); cell-free assay: 100%
Activin receptor type-2A (ACVR2A, Homo sapiens, UniProt P27037); cell-free assay: 95%
Serine/threonine-protein kinase Nek10 (NEK10, Homo sapiens, UniProt Q6ZWH5); cell-free assay: 93%
MAP/microtubule affinity-regulating kinase 3 (MARK3, Homo sapiens, UniProt P27448); cell-free assay: 100%
Mast/stem cell growth factor receptor Kit (KIT, Homo sapiens, UniProt P10721, V559D/V654A); cell-free assay: 100%

Block 2 — cell line: HEK-293T/ACE2; tested at: concentration not given; time: 16 (unit not given); relative to: vehicle; measurement: viability
CCN(C)C(=O)Oc1cccc([C@H](C)N(C)C)c1: 102%
CC(=O)[C@H]1CC[C@H]2[C@@H]3CCC4=CC(=O)CC[C@]4(C)[C@H]3CC[C@]12C: 102%
CN(C)CCn1nnnc1SCC1=C(C(=O)O)N2C(=O)[C@@H](NC(=O)Cc3csc(N)n3)[C@H]2SC1: 101%
COc1cc(Nc2c(C#N)cnc3cc(OCCCN4CCN(C)CC4)c(OC)cc23)c(Cl)cc1Cl: 83.5%
COc1ccc(C(=O)c2ccccc2)c(O)c1: 102%
CC(=O)S[C@@H]1CC2=CC(=O)CC[C@]2(C)[C@H]2CC[C@@]3(C)[C@@H](CC[C@@]34CCC(=O)O4)[C@H]12: 102%
Cc1cccc(C)c1OCC(=O)N[C@@H](Cc1ccccc1)[C@@H](O)C[C@H](Cc1ccccc1)NC(=O)[C@H](C(C)C)N1CCCNC1=O: 103%
CCC(=O)O[C@H]1CC[C@H]2[C@@H]3CCC4=CC(=O)CC[C@]4(C)[C@H]3CC[C@]12C: 101%
CC(O)(P(=O)(O)O)P(=O)(O)O: 99.3%
COc1ccc(Cl)cc1C(=O)NCCc1ccc(S(=O)(=O)NC(=O)NC2CCCCC2)cc1: 97.8%
CC(C)OC(=O)CCC/C=C\C[C@@H]1[C@@H](CC[C@@H](O)CCc2ccccc2)[C@H](O)C[C@@H]1O: 97.8%

Block 3 — cell line: HaCaT; tested at: 100 µM; time: 36 h; measurement: viability
CCOC(=O)c1cncn1[C@H](C)c1ccccc1: 87.5%
C[C@]12CCC(=O)C=C1CC[C@@H]1[C@@H]2CC[C@@]2(C)[C@H]1CC[C@]2(C)O: 72%
O=c1[nH]c2ccccc2n1C1CCN(CCCC(c2ccc(F)cc2)c2ccc(F)cc2)CC1: 9.72%
COc1ccc2c(c1)[C@]13CCCC[C@@H]1[C@H](C2)N(C)CC3: 74.2%
COC[C@@H](NC(C)=O)C(=O)NCc1ccccc1: 97.2%
CN[C@H]1C[C@@H](N)[C@H](O)[C@@H](O[C@@H]2O[C@H](CO)[C@H](O)[C@@H]3OC4(O[C@H]23)O[C@H]([C@@H](N)CO)[C@H](O)[C@H](O)[C@H]4O)[C@@H]1O (stereo partly drawn): 47.1%
CCN1C[C@]2(OC(=O)c3ccccc3NC(C)=O)CC[C@H](OC)[C@@]34[C@@H]2C[C@@H]([C@@H]13)[C@@]1(O)C[C@H](OC)[C@H]2C[C@@H]4[C@]1(O)[C@H]2OC: 85.7%

Block 4 — read-out: enzyme activity; action: inhibitor; technique: radiometric; tested at: 0.5 µM; measurement: remaining activity
Target: Serine/threonine-protein kinase 33 (STK33, Homo sapiens, UniProt Q9BYT3)
UniProt Q9BYT3, sequence (whole entry, looked up): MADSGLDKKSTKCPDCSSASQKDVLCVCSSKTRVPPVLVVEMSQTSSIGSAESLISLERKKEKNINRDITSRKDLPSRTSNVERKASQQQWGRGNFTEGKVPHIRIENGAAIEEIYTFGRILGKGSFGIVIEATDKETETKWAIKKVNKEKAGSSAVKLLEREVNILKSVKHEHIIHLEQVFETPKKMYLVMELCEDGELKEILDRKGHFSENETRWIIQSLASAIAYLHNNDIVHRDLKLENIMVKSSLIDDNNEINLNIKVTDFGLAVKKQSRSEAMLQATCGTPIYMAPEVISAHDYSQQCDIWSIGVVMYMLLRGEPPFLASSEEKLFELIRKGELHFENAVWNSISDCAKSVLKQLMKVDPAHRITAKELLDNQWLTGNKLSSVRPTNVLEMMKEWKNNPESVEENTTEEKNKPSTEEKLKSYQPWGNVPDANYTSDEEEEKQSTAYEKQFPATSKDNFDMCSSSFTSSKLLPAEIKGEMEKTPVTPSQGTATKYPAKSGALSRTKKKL
Cn1sc(=O)n(Cc2ccccc2)c1=O: 101%
Cc1cccc(-c2[nH]c(C(C)(C)C)nc2-c2ccc3c(c2)OCO3)n1: 89%
Cc1ccc(Nc2nccc(N(C)c3ccc4c(C)n(C)nc4c3)n2)cc1S(N)(=O)=O: 87.1%
O=C(CCCc1ccc(-c2ccccc2F)cc1)Nc1ccc(O)cc1: 97%
O=c1c2ccccc2[nH]c(=S)n1CCN1CCC(=C(c2ccc(F)cc2)c2ccc(F)cc2)CC1: 106%
Cc1nc(-c2ccccc2)c(-c2ccncc2)o1: 99.3%
CO[C@H]1C[C@@H]2CC[C@@H](C)[C@@](O)(O2)C(=O)C(=O)N2CCCC[C@H]2C(=O)O[C@H]([C@H](C)C[C@@H]2CC[C@@H](O)[C@H](OC)C2)CC(=O)[C@H](C)/C=C(\C)[C@@H](O)[C@@H](OC)C(=O)[C@H](C)C[C@H](C)/C=C/C=C/C=C/1C: 105%
CNC(=O)c1cc(Oc2ccc(NC(=O)Nc3ccc(Cl)c(C(F)(F)F)c3)cc2)ccn1: 83.9%
O=C(Nc1cccc(Nc2cc(Nc3cccc(C(F)(F)F)c3)ncn2)c1)C1CC1: 105%
Nc1[nH]nc2nc3ccccc3nc12: 98.7%
O=C1NC(=O)C(c2cn(CCCn3ccnc3)c3ccccc23)=C1Nc1ccccc1: 82.9%
N#CC(C#N)=C(N)/C(C#N)=C/c1ccc(O)cc1: 93.2%
COc1ccc2c(c1)/C(=C/c1cnc[nH]1)C(=O)N2: 74.7%
COc1cc2nccc(Oc3ccc(NC(=S)NC(=O)c4ccccc4C)cc3)c2cc1OC: 94.6%
COc1ccc(CNC(=O)Nc2ncc([N+](=O)[O-])s2)cc1: 100%
O=C(O)c1ccc2c3c1cccc3c(=O)n1c3ccccc3nc21: 78.8%
C#Cc1cccc(Nc2ncnc3cc(OCCOC)c(OCCOC)cc23)c1: 90.8%
